Assay results from different studies.
Each numbered part is a random draw from the data of one study; scales do not carry over between parts. Changes are numbered by the printed parent chain.

Set 1 — technique: RNAcompete; form: RNA; medium: in vitro; tested at: 20 nM; notes: 7-mer, probes averaged, single round; baseline: mean of 7-mers; direction: higher = stronger binding
Target: PABPC1L2, full length, GST fusion (mouse, UniProt A0ABA7IW68)
Residues (chain): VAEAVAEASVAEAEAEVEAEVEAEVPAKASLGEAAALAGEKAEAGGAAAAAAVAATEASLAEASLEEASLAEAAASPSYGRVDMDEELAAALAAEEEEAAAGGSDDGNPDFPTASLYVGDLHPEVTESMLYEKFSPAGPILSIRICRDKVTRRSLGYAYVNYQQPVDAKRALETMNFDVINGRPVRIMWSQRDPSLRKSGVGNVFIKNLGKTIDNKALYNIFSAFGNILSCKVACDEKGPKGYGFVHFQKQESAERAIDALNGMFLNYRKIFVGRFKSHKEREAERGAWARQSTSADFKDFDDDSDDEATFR
| Sequence | 7-mer Z-score |
| --- | --- |
| CUUAGUC | -0.434 |
| UAAGGUC | -0.133 |
| ACCAGGC | 0.0261 |
| CCAGUGA | -0.115 |
| GUCUUUU | -0.219 |
| UUGUUCC | -0.476 |
| AGGAUCU | -0.161 |
| UUAAUUC | -0.175 |

Set 2 — target: tungstate, free oxyanion; technique: microfluidic competitive inhibition; medium: in vitro, cell-free expressed; tested at: not given; direction: lower = stronger binding
Notes: derived from inhibition constants, unchanged parent 2230 nM
Parent: PafA, mature enzyme, eGFP fusion (Elizabethkingia meningoseptica, UniProt Q9KJX5); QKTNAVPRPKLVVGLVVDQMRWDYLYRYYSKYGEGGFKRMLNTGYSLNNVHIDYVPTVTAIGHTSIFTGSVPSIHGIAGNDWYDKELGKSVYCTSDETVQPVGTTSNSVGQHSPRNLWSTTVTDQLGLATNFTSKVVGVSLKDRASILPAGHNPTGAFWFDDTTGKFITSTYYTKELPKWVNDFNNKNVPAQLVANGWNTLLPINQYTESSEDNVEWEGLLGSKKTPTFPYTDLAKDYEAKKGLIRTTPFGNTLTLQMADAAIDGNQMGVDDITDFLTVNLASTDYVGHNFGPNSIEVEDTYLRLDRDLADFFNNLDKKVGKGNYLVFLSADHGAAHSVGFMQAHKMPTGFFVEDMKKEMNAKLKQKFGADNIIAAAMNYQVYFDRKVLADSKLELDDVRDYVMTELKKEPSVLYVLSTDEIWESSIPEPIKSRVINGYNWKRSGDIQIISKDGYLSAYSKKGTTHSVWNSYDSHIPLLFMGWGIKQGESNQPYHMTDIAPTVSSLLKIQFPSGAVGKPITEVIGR
| Variant | oxyanion analog dissociation constant |
| --- | --- |
| S119G | 1.51 µM |
| L244V | 2.45 µM |
| A336G | 1.64 µM |

Set 3 — technique: protein binding microarray; form: double-stranded DNA, one strand shown; medium: in vitro; tested at: not given; baseline: not given; direction: higher = stronger binding
Target: Histone acetyltransferase KAT6A, both winged helices, GST fusion (KAT6A, Homo sapiens, UniProt Q92794, residues 1-181)
Notes: 8-mer, flanks averaged, mean of 2 arrays, mostly near background
Residues (chain): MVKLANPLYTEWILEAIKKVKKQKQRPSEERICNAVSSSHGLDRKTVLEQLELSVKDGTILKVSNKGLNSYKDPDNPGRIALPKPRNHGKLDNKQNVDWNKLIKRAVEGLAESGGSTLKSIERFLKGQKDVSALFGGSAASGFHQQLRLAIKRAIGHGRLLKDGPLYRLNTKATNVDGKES
| Sequence | E-score |
| --- | --- |
| ATTTTTGA | -0.107 |
| CGTTGCCA | 0.0355 |
| GAGGAAGA | -0.143 |
| GGTAATAC | -0.101 |
| CCTGATCA | -0.211 |
| CCCGTACC | 0.219 |
| GATTAAGA | -0.0714 |
| GAGTAAAA | -0.194 |

Mixed results — target: CCND3, cyclin fold, Cln2 fusion (human); technique: yeast growth competition, sequencing; medium: yeast; notes: weak parent motif; baseline: not given; direction: higher = stronger binding; parent: viral docking peptide; TSVRRALFTGGSD
| Variant | normalised enrichment score |
| --- | --- |
| R5L | -0.239 |
| S2E | 0.158 |

Repeated from above (set 1):
| Sequence | 7-mer Z-score |
| --- | --- |
| AGGAUCU | -0.161 |
| GUCUUUU | -0.219 |
| UUGUUCC | -0.476 |
